Results from different studies.
Every numbered part comes from another study and shows a few of its results, in no order. Changes are numbered by the printed parent chain.

Sample 1 — technique: protein binding microarray; form: double-stranded DNA, one strand shown; medium: in vitro; concentration: not given; baseline: not given; reading: higher = stronger binding
Target: Histone acetyltransferase KAT6A, winged helix 2, GST fusion (KAT6A, Homo sapiens, UniProt Q92794, residues 85-181)
Notes: 8-mer, flanks averaged, mean of 2 arrays, mostly near background
Residues (chain): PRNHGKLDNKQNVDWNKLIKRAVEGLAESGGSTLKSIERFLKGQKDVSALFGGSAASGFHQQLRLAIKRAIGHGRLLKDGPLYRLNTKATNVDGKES
Strand	E-score
CAACGTAC	-0.193
AGATCAAG	0.165
AAGTTTGT	0.0657
ACAACTTG	-0.0852
GGGACATA	-0.0848
GATGCGCC	0.125

Sample 2 — technique: RNA Bind-n-Seq; form: RNA; medium: in vitro; concentration: 100 nM; baseline: input RNA pool; reading: higher = stronger binding
Target: RING finger protein unkempt homolog, zinc fingers 1-6, SBP tag (UNK, Homo sapiens, UniProt Q9C0B0, residues 30-357)
Chain of UniProt Q9C0B0 (30-357, looked up): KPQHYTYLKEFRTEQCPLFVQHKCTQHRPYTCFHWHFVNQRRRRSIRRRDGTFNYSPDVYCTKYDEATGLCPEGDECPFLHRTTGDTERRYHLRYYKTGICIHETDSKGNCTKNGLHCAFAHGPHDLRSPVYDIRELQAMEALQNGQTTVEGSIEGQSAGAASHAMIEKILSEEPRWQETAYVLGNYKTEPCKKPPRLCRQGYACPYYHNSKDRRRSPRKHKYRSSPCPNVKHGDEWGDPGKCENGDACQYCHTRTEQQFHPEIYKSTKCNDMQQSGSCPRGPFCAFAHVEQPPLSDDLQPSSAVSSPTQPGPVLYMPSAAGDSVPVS
Notes: RNA with constant flanks, vertebrate orthologous sites, ends assumed
Strand	bound/input enrichment
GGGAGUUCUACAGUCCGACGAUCCUUAACCCCAUCUCUUCUGUUUCCUAGUGCCGCCGAGAGCGUCCUCUCUGACUCUUUCAUUAGCGAACUCAUUUUAAUUUUAGAAAAAACUUUCAGCAUCGUUGCUGACAGCUGCUCUACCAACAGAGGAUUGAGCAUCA	2.14 ratio
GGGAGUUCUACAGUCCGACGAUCAUCUCUCACUUACCUGAGUCCGAAUCCGCUAUGAGGGUUUGAAACAUUUCAUGUUUCAUGUUAAACUACACUGGCAGGUGCUCAAAUACCAUCAUAGCGAGAUGAAAUACCAUCACAGUACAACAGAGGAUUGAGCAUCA	0.909 ratio
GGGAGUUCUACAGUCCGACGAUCAUAGUUAUGUUGUUAGUUAUAUGGAAUGACCUUGAUCCUGAGUUCGCUUCCUCAGUAACGUAGAUUUCAUUUCUAUUCCUGCACUUUUAGUGAUGUCAAUAAAUAGAAGGUUUGUGUCAGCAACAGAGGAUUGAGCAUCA	1.24 ratio
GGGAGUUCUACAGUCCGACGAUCACAUGCUCUCUGCAGGAAGCUGCUAGCUGCUUAGCAUCCAUUUGAUUAGUGAUAUUGAGAAGAAAGGUUUGUGGUGGUGUUUUUUUUUUUUUUUUAAGAUAUUGAGACUUAAUUAACUAACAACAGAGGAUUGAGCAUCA	2.06 ratio
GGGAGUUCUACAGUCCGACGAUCCCUACAAUAAUGAAAAUCUACAGAAAAUUUUUUAUUUUUCAUUUUUCCCUUAGGCAUAUUGAGUCUAUUUCCCCCCAGGCAGAUCAUUCUGAGUGUGCGAGUGUGUGUGCACAUGUUAAACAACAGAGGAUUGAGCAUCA	0.374 ratio
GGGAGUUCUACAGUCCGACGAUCUAAUGCAAUGGUUGAAGGCUCUGAGCUCAAAAAGUUUCGGUCCAACUCUAGAGUAUAUCACCGGUACUUUCUUUUAGAUGCAGAUAUGCAGUCCCUGCGUUGGGAACCUUCAAAGAAGGACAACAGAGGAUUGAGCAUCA	0.429 ratio
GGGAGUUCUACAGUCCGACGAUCAGGAAAUGCUGGCUGCAAACCCUCAGGAUCGUCCAGAUGCUUUUGAACUAGAACUCAGAUUAGUACAAAUCGCAUUUAAAGAUAGCAGCUGGGAAACGUGACACACAUUAUUUGCAAAUACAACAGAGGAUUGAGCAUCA	0.872 ratio

Sample 3 — target: CCNA1, cyclin fold, Cln2 fusion (human); technique: yeast growth competition, sequencing; medium: yeast; notes: weak parent motif; baseline: not given; reading: higher = stronger binding
Starting sequence: PKN2 docking peptide (human); VSAVQKLDFSDTM
Change	normalised enrichment score
VSAVQKLDFSHTM [D11H]	0.201
VSAVQKLDFSDTL [M13L]	0.188
VSAVQKLDFSQTM [D11Q]	-0.00721
VSKVQKLDFSDTM [A3K]	0.0491
VSAVQKLDFSNTM [D11N]	0.334

Further values, each from its own experiment
Substance	target	assay	system	setting	scale	measurement	value
PhoQ, residues 284 288 289 292 302 303 ALASRC	PhoP, residues 12 14 15 18 19 DLLYY (Escherichia coli, UniProt P23836)	Sort-seq, refers to: YFP reporter	E. coli	PhoQ-PhoP variant library, together with: 10 µM Mg2+	baseline: high Mg2+ state, higher = stronger signaling	fold induction	1.62

Some of these lines once more (sample 1):
Strand	E-score
CAACGTAC	-0.193
AGATCAAG	0.165
AAGTTTGT	0.0657
